Assay results from different studies.
Every numbered part comes from another study and shows a few of its results, in no order. Substitutions count along the parent as printed.

Block 1
Target: Histone acetyltransferase KAT6A, winged helix 1, GST fusion (KAT6A, Homo sapiens, UniProt Q92794, residues 1-85)
Method: protein binding microarray
Molecule type: double-stranded DNA, one strand shown
Medium: in vitro
Concentration: not given
Setting: 8-mer, flanks averaged, mean of 2 arrays, mostly near background
Reference: not given
Direction: higher = stronger binding
Residues (chain): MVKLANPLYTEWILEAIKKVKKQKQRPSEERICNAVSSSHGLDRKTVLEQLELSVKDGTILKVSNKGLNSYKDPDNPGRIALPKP
| Strand | E-score |
| --- | --- |
| CGATTAAC | 0.0824 |
| CATGCACG | 0.00995 |
| AACTTCCA | -0.114 |
| AAGTGGCG | 0.027 |
| AAAAACTT | -0.251 |
| CCATGGAC | -0.0661 |
| ACAATAAT | -0.0535 |
| GGGTATAA | 0.0215 |
| GTTCTAGA | -0.134 |
| ACGTATTA | -0.000175 |
| GAGAATAC | -0.0284 |
| ATGTAGTA | -0.13 |
| CGTTAGAC | 0.0565 |
| CTTAGAAA | -0.118 |
| GAGGTAGA | -0.116 |
| ATAATCCG | 0.00556 |
| CAACGTGG | -0.156 |
| ACATCCGA | 0.073 |
| GCGCGTAC | 0.433 |
| ACGATACG | 0.0211 |
| AGATAGGA | -0.0744 |
| AAATTCCT | -0.106 |
| ACCTTCAA | -0.103 |
| CGTTCCAG | -0.116 |
| AACCACTC | -0.121 |

Block 2
Target: Interferon regulatory factor 7, full length, phosphomimetic (IRF7, Homo sapiens, UniProt Q92985, residues 1-503, S101K/S471D/S472D/S475D/S476D/S477D/S483D/S484D/S487D)
UniProt Q92985, sequence (whole entry, unmodified, looked up): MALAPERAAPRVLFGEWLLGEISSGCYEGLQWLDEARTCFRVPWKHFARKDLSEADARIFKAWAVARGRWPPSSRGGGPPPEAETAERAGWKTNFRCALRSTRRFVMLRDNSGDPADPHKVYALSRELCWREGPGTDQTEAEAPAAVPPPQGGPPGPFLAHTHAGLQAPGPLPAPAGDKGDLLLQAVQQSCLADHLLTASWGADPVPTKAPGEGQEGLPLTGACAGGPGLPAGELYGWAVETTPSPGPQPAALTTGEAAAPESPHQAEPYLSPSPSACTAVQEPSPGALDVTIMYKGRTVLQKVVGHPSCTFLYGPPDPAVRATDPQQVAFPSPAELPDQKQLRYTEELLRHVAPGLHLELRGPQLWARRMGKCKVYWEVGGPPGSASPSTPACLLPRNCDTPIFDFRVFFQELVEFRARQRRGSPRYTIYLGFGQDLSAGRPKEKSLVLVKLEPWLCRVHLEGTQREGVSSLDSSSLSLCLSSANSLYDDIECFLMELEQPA
Method: protein-binding microarray
Molecule type: double-stranded DNA, one strand shown
Medium: in vitro
Concentration: 250 nM
Setting: 60-bp whole probe
Together with: salmon DNA 0.4 mg/ml
Reference: random background probes
Direction: higher = stronger binding
All sequences stand within: GCCTAGCAC … GTCTTGATTCGCTTGACGCTGCTG
| Strand | log fluorescence [z-score] |
| --- | --- |
| TTAGGTACCGGTTTCGGTTAGTGCTAG | 10.2 |
| TTAGATATCAGATTGGATTAGTGCTAG | -0.149 |
| GACGGTATCGGGTACCGGGACGTGCTA | 0.275 |
| GACGGAGTGGGTTTCGGGACGTGCTAG | 1.59 |
| CTAGGTTCCCTTTTCCTTTAGTGCTAG | 4.44 |
| TTAGTTCTCAGTTTCGATTAGTGCTAG | 8.76 |
| TTAGATTTCGGGTTTCCATTAGTGCTA | 3.63 |
| TTAGGCCTGCTACTGCTTTAGTGCTAG | -0.619 |
| GACGGTATCTGGTTTCGGGACGTGCTA | 3.21 |
| GACGGTCTCGGTTTAGGGACGTGCTAG | 7.02 |
| CTAGAACTGAGACTGGATTAGTGCTAG | 0.191 |
| CACTCCACCTCTGTGCTCTTGTGCTAG | -0.121 |
| TTAAGTTTCGACACTGGGTTAGTGCTA | 3.91 |
| GCCGGTTTCCTTATCCTGACGTGCTAG | 4.08 |
| CACGGTTTCGGTTTCGGGACGTGCTAG | 14.4 |
| TTAAAAAAAAAAAACTGTAACGTGCTA | 0.19 |
| CTGTGGGAGGCCCGCGGGAGGTGCTAG | -1.33 |

Block 3
Target: CCNF, cyclin fold, Cln2 fusion (human)
Method: yeast growth competition, sequencing
Medium: yeast
Setting: weak parent motif
Reference: not given
Direction: higher = stronger binding
Starting sequence: RP1L1 docking peptide (human); TLGLGPLSFTLED; partner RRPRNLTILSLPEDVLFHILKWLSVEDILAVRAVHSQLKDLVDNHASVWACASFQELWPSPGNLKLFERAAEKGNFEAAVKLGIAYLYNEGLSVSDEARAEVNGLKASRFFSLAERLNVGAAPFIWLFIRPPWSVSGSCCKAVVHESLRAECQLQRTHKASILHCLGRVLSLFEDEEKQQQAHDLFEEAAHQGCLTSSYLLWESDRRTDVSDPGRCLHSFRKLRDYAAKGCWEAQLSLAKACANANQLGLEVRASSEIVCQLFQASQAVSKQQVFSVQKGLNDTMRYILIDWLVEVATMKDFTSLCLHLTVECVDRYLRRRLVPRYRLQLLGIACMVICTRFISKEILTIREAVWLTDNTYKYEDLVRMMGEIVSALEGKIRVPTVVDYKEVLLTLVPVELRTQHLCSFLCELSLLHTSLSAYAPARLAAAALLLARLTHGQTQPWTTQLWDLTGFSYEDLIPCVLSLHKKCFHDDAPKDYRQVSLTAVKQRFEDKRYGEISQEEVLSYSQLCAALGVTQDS
| Variant | normalised enrichment score |
| --- | --- |
| L11A | -0.576 |
| L2A | -0.694 |
| T1A | -0.461 |
| P6A | -0.774 |
| D13A | -0.313 |
| E12A | -0.53 |
| T10A | -0.478 |

Block 4
Target: Sal-like protein 4, full length isoform A (SALL4, Homo sapiens, UniProt Q9UJQ4, residues 1-1053)
UniProt Q9UJQ4, sequence (whole entry, looked up): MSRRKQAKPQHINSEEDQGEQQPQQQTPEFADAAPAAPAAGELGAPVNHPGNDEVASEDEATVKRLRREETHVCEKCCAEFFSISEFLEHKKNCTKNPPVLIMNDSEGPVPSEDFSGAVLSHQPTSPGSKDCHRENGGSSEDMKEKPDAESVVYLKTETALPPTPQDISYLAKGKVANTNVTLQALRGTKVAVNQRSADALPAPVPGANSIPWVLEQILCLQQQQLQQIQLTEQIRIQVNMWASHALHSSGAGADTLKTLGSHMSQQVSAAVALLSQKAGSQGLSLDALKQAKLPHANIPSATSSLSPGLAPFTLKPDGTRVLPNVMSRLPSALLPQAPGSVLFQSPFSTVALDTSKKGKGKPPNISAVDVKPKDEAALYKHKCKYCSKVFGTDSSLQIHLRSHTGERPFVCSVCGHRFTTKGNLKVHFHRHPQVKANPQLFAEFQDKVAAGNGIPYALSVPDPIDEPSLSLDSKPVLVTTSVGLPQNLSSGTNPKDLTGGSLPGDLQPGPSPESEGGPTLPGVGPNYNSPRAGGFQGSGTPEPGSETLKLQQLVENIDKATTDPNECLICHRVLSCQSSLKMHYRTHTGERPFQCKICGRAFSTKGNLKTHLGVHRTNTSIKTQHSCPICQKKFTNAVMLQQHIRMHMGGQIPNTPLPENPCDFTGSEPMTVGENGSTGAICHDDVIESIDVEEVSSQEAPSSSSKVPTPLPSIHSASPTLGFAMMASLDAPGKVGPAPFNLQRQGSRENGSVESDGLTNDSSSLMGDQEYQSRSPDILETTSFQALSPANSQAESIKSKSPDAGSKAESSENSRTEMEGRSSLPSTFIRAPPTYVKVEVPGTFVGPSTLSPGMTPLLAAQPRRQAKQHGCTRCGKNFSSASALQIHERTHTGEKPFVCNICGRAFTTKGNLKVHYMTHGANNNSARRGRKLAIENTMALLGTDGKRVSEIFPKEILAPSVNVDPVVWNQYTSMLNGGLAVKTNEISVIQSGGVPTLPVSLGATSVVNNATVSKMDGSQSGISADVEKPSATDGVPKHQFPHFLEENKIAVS
Method: universal PBM
Molecule type: double-stranded DNA, one strand shown
Medium: in vitro
Concentration: 600 nM
Setting: 8-mer, flanks averaged, mean of replicates
Direction: higher = stronger binding
| Strand | E-score |
| --- | --- |
| GATGAATA | 0.311 |
| AGTTAAAC | 0.0518 |
| AGGAGTCA | 0.024 |
| ATGGTTAA | 0.23 |
| AATAGTTG | 0.307 |
| GTTGACAA | 0.11 |
| AGATCAAC | 0.0878 |
| AAATTAAG | 0.217 |
| GTGGATGA | -0.0445 |
| GACGGGAC | -0.313 |
| ATTACGAC | 0.224 |
| AATGAAAG | 0.219 |
| CTCACTGA | -0.0456 |
| CCTAGCTA | -0.0168 |
| CGAATCCC | -0.245 |
| GTGTACCA | 0.0136 |
| GTGTGCAA | -0.11 |

Block 5
Target: ABI1, truncated, D143A, DHFR fusion (Arabidopsis thaliana)
Method: DHFR PCA, deep sequencing
Medium: yeast
Setting: methotrexate growth selection, single substitutions
Together with: (+)-ABA 0.39 µM
Reference: wild-type fitted maximum
Direction: higher = stronger binding
Starting sequence: PYL1, truncated, DHFR fusion (Arabidopsis thaliana); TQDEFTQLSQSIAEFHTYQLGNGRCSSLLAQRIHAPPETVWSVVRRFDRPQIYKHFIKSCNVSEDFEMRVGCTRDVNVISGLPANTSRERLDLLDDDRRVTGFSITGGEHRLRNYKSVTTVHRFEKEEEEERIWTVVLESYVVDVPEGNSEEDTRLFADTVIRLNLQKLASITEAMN
| Variant | relative binding score [%] |
| --- | --- |
| E128Y | 28.3 |
| E174L | -13.6 |
| T17P | -4.49 |
| V76Y | -1.72 |
| K54D | 2.38 |
| R46H | 10.9 |
| Q2Y | 65.7 |
| R24P | -1.61 |
| C72Y | -9.61 |
| V40I | -9.17 |
| V143P | -12.5 |
| V161Y | 7.55 |
| R46M | 12.9 |
| R32C | 29.5 |
| H55S | 56.9 |
| S27C | 0.425 |
| L166F | -6.71 |
| Q10S | 56.5 |
| N61A | 45.8 |
| A170K | 58.9 |
| V121R | -4.1 |
| K126E | 51.2 |
| R155T | 18.6 |
| T73F | 60.1 |
| R24Y | -4.43 |

Block 6
Target: Centromere-binding protein 1, full length, N-terminal tag (CBF1, Saccharomyces cerevisiae, UniProt P17106, residues 1-351)
UniProt P17106, sequence (whole entry, looked up): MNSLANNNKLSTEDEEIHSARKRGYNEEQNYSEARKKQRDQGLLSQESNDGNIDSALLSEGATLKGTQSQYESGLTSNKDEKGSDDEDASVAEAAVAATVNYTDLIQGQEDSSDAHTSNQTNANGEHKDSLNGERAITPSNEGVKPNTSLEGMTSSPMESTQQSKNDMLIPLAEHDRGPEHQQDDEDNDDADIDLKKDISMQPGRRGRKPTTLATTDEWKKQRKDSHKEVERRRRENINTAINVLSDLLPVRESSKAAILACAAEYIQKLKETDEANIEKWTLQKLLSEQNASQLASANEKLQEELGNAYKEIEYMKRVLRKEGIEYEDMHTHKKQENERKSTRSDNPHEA
Method: protein-binding microarray
Molecule type: double-stranded DNA, one strand shown
Medium: in vitro
Concentration: 0.8 µM
Setting: whole 60-bp probe, no competitor
Direction: higher = stronger binding
All sequences stand within: … GTCTTGATTCGCTTGACGCTGCTG
| Strand | fluorescence intensity [a.u.] |
| --- | --- |
| CCTAACTACTATACTCAGGTGTAATAGCTTCGTACA | 539 |
| GAAAGATGTCGATGACGTGTGTAGCGTAAAAATTAG | 562 |
| CCTAACTACTATATGGGCGTGAAATAGCTTCGTACA | 495 |
| TGTACGAAGCTATATCATGACGCTATAGTAGTTAGG | 522 |
| GAATCACACCGGCACCACCTTGATTCCACACTGTAG | 503 |
| GAACGAAAATAGCACGTGCCTATTGATCTTAATTAG | 14600 |
| GAAATTTAAGGAGCCTACATCAGGACAGTAGTATAG | 536 |
| CTAGTTAATATTGATCACGAGAATAACAGATCTTTC | 2270 |
| CTACTCTATTGTTAACACGAGGGAAAAGATGGATTC | 714 |
| CTAACCACGATATCGCACGCACACCAGGAAAGTTTC | 536 |
| GAAAAAACAAAAACTCGTGAGTCACTGTGCATTTAG | 583 |
| CTATAGTTGAGTTTTCACTCACGTACAGCTAGATTC | 578 |
| CTATTTCACAAAAAACATGTGATATGCTTTCAATTC | 2290 |
| CTAATTTAGAGTTTTCACGTTATGTGACCATCTTTC | 703 |
| GAAGTAAGAAAGCAGCACGAGCTCAACAAGACTTAG | 668 |
| GAATCTCTCTTTTCCCACGTGCTCCGCTCTCTTTAG | 3030 |
| CTAATTTTTTTCTGTCAGGTGCGGCCCATCATCTTC | 1110 |
| GAAGTACCAAGACTTCACGGGATTGAAATCGGATAG | 640 |
| CTACTTAATTAACACCACCTTTGAATAATTTATTTC | 528 |
| GAATGTATAGGCAACCACGCGTTACAAAGTAAGTAG | 606 |
| CTACGTCTATGATGACGTGTTCACATTATCAAATTC | 595 |
| CTACCCAAAAATCGTCACCTTTGTGCGGCGAGCTTC | 496 |
| CTAAACACAAGCCCCCACGATGGCCTACTCTTCTTC | 490 |
| CTATAAGCATCGCACCACCTACAATACCCACGGTTC | 531 |
| CTATTTAACTAAACAATGGTGATGATATGTTAATTC | 567 |

Repeated from above (block 3):
| Variant | normalised enrichment score |
| --- | --- |
| E12A | -0.53 |
| T10A | -0.478 |
| P6A | -0.774 |
| D13A | -0.313 |
| T1A | -0.461 |
| L2A | -0.694 |
| L11A | -0.576 |
